Experimental data pooled from the literature.
Each line is one published result; not all experiments were run side by side. Values joined by “and” are separate records of one study, mostly repeats; a detail may differ.
T1: itself; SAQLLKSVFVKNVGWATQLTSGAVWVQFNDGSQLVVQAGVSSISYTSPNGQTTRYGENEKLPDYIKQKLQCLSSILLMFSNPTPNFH
T2: itself; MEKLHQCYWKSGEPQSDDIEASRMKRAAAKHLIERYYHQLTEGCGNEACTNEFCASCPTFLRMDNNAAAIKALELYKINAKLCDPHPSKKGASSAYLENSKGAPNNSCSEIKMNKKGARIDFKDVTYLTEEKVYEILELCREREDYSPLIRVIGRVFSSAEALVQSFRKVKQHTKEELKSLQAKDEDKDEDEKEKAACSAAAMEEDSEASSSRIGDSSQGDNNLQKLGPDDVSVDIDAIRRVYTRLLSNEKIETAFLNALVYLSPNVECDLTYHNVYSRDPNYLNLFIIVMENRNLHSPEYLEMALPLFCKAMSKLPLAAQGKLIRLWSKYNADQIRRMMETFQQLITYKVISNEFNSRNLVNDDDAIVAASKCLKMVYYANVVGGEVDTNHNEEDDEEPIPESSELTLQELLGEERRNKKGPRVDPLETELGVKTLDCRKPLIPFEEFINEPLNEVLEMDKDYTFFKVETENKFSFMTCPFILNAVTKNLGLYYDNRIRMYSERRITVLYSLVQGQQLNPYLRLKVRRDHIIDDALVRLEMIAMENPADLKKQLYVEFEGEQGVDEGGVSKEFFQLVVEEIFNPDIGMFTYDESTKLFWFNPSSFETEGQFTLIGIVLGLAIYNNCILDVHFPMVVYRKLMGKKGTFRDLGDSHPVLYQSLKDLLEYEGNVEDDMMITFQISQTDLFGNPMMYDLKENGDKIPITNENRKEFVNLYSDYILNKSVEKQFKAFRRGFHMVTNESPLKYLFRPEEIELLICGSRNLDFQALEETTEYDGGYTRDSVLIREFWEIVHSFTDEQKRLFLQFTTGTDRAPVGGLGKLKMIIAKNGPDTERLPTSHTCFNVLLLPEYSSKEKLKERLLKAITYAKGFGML
T3: itself; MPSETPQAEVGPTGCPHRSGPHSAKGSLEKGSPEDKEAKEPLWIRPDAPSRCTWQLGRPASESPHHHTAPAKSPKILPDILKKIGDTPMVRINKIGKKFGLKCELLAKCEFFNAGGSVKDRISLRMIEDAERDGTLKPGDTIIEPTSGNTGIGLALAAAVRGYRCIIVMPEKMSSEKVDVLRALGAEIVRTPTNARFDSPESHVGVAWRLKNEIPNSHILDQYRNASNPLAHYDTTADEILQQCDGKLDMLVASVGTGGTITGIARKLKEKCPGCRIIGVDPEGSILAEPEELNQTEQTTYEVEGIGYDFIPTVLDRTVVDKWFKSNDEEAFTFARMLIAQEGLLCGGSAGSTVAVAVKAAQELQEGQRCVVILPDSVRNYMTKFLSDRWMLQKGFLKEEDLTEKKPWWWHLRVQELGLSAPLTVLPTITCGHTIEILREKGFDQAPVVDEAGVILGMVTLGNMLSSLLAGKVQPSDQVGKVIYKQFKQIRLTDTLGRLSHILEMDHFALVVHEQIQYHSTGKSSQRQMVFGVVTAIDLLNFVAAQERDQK
T4: itself; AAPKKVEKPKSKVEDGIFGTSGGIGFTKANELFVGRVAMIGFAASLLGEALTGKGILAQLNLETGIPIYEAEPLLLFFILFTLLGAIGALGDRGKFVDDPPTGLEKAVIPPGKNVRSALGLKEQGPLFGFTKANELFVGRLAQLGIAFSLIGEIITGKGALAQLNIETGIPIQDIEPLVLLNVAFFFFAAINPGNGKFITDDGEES
B1: PLK4 884-970 (Homo sapiens, UniProt O00444); chain SAQLLKSVFVKNVGWATQLTSGAVWVQFNDGSQLVVQAGVSSISYTSPNGQTTRYGENEKLPDYIKQKLQCLSSILLMFSNPTPNFH
B2: CBS (Homo sapiens, UniProt P35520); chain MPSETPQAEVGPTGCPHRSGPHSAKGSLEKGSPEDKEAKEPLWIRPDAPSRCTWQLGRPASESPHHHTAPAKSPKILPDILKKIGDTPMVRINKIGKKFGLKCELLAKCEFFNAGGSVKDRISLRMIEDAERDGTLKPGDTIIEPTSGNTGIGLALAAAVRGYRCIIVMPEKMSSEKVDVLRALGAEIVRTPTNARFDSPESHVGVAWRLKNEIPNSHILDQYRNASNPLAHYDTTADEILQQCDGKLDMLVASVGTGGTITGIARKLKEKCPGCRIIGVDPEGSILAEPEELNQTEQTTYEVEGIGYDFIPTVLDRTVVDKWFKSNDEEAFTFARMLIAQEGLLCGGSAGSTVAVAVKAAQELQEGQRCVVILPDSVRNYMTKFLSDRWMLQKGFLKEEDLTEKKPWWWHLRVQELGLSAPLTVLPTITCGHTIEILREKGFDQAPVVDEAGVILGMVTLGNMLSSLLAGKVQPSDQVGKVIYKQFKQIRLTDTLGRLSHILEMDHFALVVHEQIQYHSTGKSSQRQMVFGVVTAIDLLNFVAAQERDQK
B3: PsbS mature (Arabidopsis thaliana, UniProt Q9XF91); chain AAPKKVEKPKSKVEDGIFGTSGGIGFTKANELFVGRVAMIGFAASLLGEALTGKGILAQLNLETGIPIYEAEPLLLFFILFTLLGAIGALGDRGKFVDDPPTGLEKAVIPPGKNVRSALGLKEQGPLFGFTKANELFVGRLAQLGIAFSLIGEIITGKGALAQLNIETGIPIQDIEPLVLLNVAFFFFAAINPGNGKFITDDGEES
B4: IGF2BP2 (Homo sapiens, UniProt Q9Y6M1); chain MMNKLYIGNLSPAVTADDLRQLFGDRKLPLAGQVLLKSGYAFVDYPDQNWAIRAIETLSGKVELHGKIMEVDYSVSKKLRSRKIQIRNIPPHLQWEVLDGLLAQYGTVENVEQVNTDTETAVVNVTYATREEAKIAMEKLSGHQFENYSFKISYIPDEEVSSPSPPQRAQRGDHSSREQGHAPGGTSQARQIDFPLRILVPTQFVGAIIGKEGLTIKNITKQTQSRVDIHRKENSGAAEKPVTIHATPEGTSEACRMILEIMQKEADETKLAEEIPLKILAHNGLVGRLIGKEGRNLKKIEHETGTKITISSLQDLSIYNPERTITVKGTVEACASAEIEIMKKLREAFENDMLAVNQQANLIPGLNLSALGIFSTGLSVLSPPAGPRGAPPAAPYHPFTTHSGYFSSLYPHHQFGPFPHHHSYPEQEIVNLFIPTQAVGAIIGKKGAHIKQLARFAGASIKIAPAEGPDVSERMVIITGPPEAQFKAQGRIFGKLKEENFFNPKEEVKLEAHIRVPSSTAGRVIGKGGKTVNELQNLTSAEVIVPRDQTPDENEEVIVRIIGHFFASQTAQRKIREIVQQVKQQEQKYPQGVASQRSK
UniProt P02930, sequence (whole entry, unmodified, looked up): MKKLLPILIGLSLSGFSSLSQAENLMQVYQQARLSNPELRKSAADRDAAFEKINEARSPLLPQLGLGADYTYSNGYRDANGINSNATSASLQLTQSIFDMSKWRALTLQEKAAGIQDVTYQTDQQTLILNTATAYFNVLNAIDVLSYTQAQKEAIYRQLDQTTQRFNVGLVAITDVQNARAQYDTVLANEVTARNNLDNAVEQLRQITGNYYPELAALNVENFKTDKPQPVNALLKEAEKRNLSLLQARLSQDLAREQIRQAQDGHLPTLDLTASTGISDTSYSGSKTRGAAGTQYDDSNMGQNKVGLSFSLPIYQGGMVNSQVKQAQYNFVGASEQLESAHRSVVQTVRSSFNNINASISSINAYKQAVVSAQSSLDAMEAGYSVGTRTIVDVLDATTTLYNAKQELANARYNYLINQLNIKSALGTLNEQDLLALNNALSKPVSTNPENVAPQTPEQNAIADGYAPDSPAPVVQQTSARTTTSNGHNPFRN
UniProt P26368, sequence (whole entry, looked up): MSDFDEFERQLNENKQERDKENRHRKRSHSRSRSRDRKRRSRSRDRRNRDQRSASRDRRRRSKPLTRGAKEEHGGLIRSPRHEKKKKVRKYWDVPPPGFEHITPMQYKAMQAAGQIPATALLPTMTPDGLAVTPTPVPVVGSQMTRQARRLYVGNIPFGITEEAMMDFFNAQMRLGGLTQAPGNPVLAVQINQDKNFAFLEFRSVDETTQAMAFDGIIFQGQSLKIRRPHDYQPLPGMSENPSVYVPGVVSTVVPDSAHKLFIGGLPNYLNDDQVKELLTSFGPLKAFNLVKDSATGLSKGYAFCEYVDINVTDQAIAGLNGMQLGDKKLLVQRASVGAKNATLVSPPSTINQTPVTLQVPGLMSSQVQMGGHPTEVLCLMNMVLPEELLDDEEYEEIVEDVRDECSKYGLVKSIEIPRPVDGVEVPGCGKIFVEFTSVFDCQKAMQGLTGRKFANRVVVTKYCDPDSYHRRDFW
UniProt P12830, sequence (whole entry, looked up): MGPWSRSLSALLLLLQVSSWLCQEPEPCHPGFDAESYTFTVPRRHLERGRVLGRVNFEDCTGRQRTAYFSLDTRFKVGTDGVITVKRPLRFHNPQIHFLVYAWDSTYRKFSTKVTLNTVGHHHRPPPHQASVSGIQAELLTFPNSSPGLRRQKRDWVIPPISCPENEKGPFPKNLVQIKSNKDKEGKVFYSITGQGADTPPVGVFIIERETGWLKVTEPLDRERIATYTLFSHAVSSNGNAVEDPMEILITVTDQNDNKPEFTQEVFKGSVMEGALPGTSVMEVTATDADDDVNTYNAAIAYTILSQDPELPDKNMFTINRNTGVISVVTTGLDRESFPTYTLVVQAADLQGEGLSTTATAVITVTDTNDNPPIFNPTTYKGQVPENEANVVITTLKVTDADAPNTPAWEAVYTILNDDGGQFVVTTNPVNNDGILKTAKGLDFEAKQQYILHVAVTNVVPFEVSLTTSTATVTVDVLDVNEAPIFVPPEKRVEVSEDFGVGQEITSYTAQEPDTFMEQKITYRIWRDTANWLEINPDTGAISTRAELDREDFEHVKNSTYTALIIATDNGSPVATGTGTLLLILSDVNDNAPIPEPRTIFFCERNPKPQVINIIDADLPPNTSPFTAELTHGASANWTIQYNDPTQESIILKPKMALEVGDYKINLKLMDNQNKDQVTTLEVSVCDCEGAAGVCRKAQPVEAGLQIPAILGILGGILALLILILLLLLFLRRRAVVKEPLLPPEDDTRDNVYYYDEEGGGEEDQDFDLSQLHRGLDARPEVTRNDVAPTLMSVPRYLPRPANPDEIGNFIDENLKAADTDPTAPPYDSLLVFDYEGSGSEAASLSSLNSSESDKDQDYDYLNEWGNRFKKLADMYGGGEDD
UniProt P61970, sequence (whole entry, looked up): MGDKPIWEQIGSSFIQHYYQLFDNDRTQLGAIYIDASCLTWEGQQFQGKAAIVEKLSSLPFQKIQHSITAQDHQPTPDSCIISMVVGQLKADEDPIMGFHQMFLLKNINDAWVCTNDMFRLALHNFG

Substance	tested on	assay	test system	setting	quantity	result
sodN mature E17A/R47A (Streptomyces coelicolor)	itself	ESI-MS		denaturing conditions	subunits per oligomer	6
KL fragment (Homo sapiens)	itself	SEC			subunits per oligomer	2
NPM1 T46R (Homo sapiens)	itself	SEC-MALS			subunits per oligomer	2
CENPF fragment (Homo sapiens)	itself	SEC-MALS			subunits per oligomer	2
CDH1 (Homo sapiens, UniProt P12830)	itself	FRET or BRET		in cells	subunits per oligomer	2
B1 (PLK4 884-970)	T1, itself	SEC-MALS			subunits per oligomer	2
GCN2 HisRS-like domain (Chaetomium thermophilum)	itself	SEC-MALS			subunits per oligomer	2
UDP-2,3-diacylglucosamine hydrolase (Caulobacter crescentus)	itself	SEC			subunits per oligomer	2
sodN mature E17R/R47E (Streptomyces coelicolor)	itself	ESI-MS		denaturing conditions	subunits per oligomer	6
Gl2 (Gossypium hirsutum)	itself	SEC-MALS			subunits per oligomer	4
ALD1 fragment (Toxoplasma gondii)	itself	SEC			subunits per oligomer	2
APOE apoE4 V236E (Homo sapiens)	itself	AUC		30 µM	subunits per oligomer	2
CAMK2D D336C (Homo sapiens)	itself	X-ray crystallography			subunits per oligomer	12
SELENOS Sec to Cys (Homo sapiens)	itself	non-reducing SDS-PAGE Western blot	not purified		subunits per oligomer	2
popZ fragment (Caulobacter crescentus)	itself	cryo-electron tomography			subunits per oligomer	6
SUMO (Sulfolobus acidocaldarius)	itself	crystal structure			subunits per oligomer	2
sodN mature H1A (Streptomyces coelicolor)	itself	ESI-MS		denaturing conditions	subunits per oligomer	6
MyoF tail (Toxoplasma gondii)	itself	SEC			subunits per oligomer	> 6

Substance	tested on	assay	test system	setting	quantity	result
clcA fragment C85A/H234C/L406A/I409A/I410A/L413A (Escherichia coli)	itself	SEC			subunits per oligomer	2
UBE3A (Homo sapiens, UniProt Q05086)	T2, itself	mass photometry			subunits per oligomer	4 and 2
CLTC/CLTA triskelion (Bos taurus)	itself	deep-etch electron microscopy			subunits per oligomer	4
B2 (CBS)	T3, itself	crystal structure			subunits per oligomer	4
hfq fragment R16A, dansyl label (Escherichia coli)	itself	native gel			subunits per oligomer	6
ERF fragment (Homo sapiens)	itself	cross-linking		no DNA	subunits per oligomer	2
popZ P146A (Caulobacter crescentus)	itself	mass photometry		250 nM, no MgCl2	subunits per oligomer	3
comFB (Thermoanaerobacter brockii)	itself	SEC-MALS			subunits per oligomer	2
B3 (PsbS mature)	T4, itself	cross-linking		not purified	subunits per oligomer	2
CRYBB2 Q70E/Q162E (Homo sapiens)	itself	SEC-MALS			subunits per oligomer	2
B4 (IGF2BP2)	itself	mass photometry			subunits per oligomer	2 and 4
MXAN_1565 GAF domain (Myxococcus xanthus)	itself	SEC			subunits per oligomer	2
TolC mature monomer (Escherichia coli, UniProt P02930)	itself	SEC			subunits per oligomer	3
NUTF2 EGFP fusion (Homo sapiens, UniProt P61970)	itself	fluorescence fluctuation spectroscopy		brightness	subunits per oligomer	2
CUUUCCCUU (ssRNA)	U2AF2 148-342 (Homo sapiens, UniProt P26368)	sequencing of bound RNA	RNA	motif only	Kd	4.51 µM
LECA (Pisum sativum)	itself	SAXS			subunits per oligomer	2
GlyRS αβ fusion (Oryza sativa)	itself	cryo-EM			subunits per oligomer	2
